Measured values gathered from unrelated publications.
Numbers after ± are the reported error.

CCCC[C@H](NC(=O)CCCCCCCNC(=O)c1ccc(NN)nc1)C(=O)N[C@H]1CC(=O)NCCCC[C@@H](C(N)=O)NC(=O)[C@H](Cc2c[nH]c3ccccc23)NC(=O)[C@H](CCCNC(=N)N)NC(=O)[C@@H](Cc2ccccc2)NC(=O)[C@H](Cc2c[nH]cn2)NC1=O [technetium-99m labelled] — tissue uptake (C57 mouse, B16/F1 melanoma, liver; 2 h, together with: L-lysine 12 mg co-injected): 1.22 ± 0.15 %ID/g
N=C(N)NCCC[C@@H]1NC(=O)[C@H](CCCCNC(=O)CC[C@H](NC(=O)CCOCCOCCOCCOCCNC(=O)CC[C@H](NC(=O)CN2CCN(CC(=O)O)CCN(CC(=O)O)CCN(CC(=O)O)CC2)C(=O)NCCOCCOCCOCCOCCC(=O)N[C@@H](CCC(=O)NCCCC[C@@H]2NC(=O)[C@@H](Cc3ccccc3)NC(=O)[C@H](CC(=O)O)NC(=O)CNC(=O)[C@H](CCCNC(=N)N)NC2=O)C(=O)NCCCC[C@@H]2NC(=O)[C@@H](Cc3ccccc3)NC(=O)[C@H](CC(=O)O)NC(=O)CNC(=O)[C@H](CCCNC(=N)N)NC2=O)C(=O)NCCCC[C@@H]2NC(=O)[C@@H](Cc3ccccc3)NC(=O)[C@H](CC(=O)O)NC(=O)CNC(=O)[C@H](CCCNC(=N)N)NC2=O)NC(=O)[C@@H](Cc2ccccc2)NC(=O)[C@H](CC(=O)O)NC(=O)CNC1=O [indium-111 labelled] — tissue uptake (female athymic nude mice, bone; intravenous, 3 µCi, 1 h, U-87 MG glioma xenograft): 1.83 ± 0.7 %ID/g
CCCC[C@H](NC(=O)CNC(=O)CNC(=O)c1ccc(NN)nc1)C(=O)N[C@H]1CC(=O)NCCCC[C@@H](C(N)=O)NC(=O)[C@H](Cc2c[nH]c3ccccc23)NC(=O)[C@H](CCCNC(=N)N)NC(=O)[C@@H](Cc2ccccc2)NC(=O)[C@H](Cc2c[nH]cn2)NC1=O [technetium-99m labelled] — tissue uptake (C57 mouse, B16/F1 melanoma-bearing, blood; intravenous, 4 h): 0.12 ± 0.08 %ID/g
CSCC[C@H](NC(=O)[C@H](CC(C)C)NC(=O)[C@H](Cc1c[nH]cn1)NC(=O)CNC(=O)[C@@H](NC(=O)[C@H](C)NC(=O)[C@H](Cc1c[nH]c2ccccc12)NC(=O)[C@H](CCC(N)=O)NC(=O)CCCCNC(=O)CSCCSCCP(CO)CO)C(C)C)C(N)=O [technetium-99m labelled] — tissue uptake (female CF-1 mouse, whole blood; intravenous, 4 h): 0.15 %ID/g
CSCC[C@H](NC(=O)[C@H](CC(C)C)NC(=O)[C@H](Cc1c[nH]cn1)NC(=O)CNC(=O)[C@@H](NC(=O)[C@H](C)NC(=O)[C@H](Cc1c[nH]c2ccccc12)NC(=O)[C@H](CCC(N)=O)NC(=O)CNC(=O)[C@H](CO)NC(=O)CNC(=O)CCCCCCCNC(=O)CCC(=O)Nc1ccc(CNC23CNCCNCC(N)(CNCCNC2)CNCCNC3)cc1)C(C)C)C(N)=O [copper-64 labelled] — tissue uptake (female SCID mice, PC-3 xenograft, pancreas; intravenous, 0.6 MBq, 1 h): 52 ± 4.42 %ID/g
CCCC[C@H](NC(=O)COCCOCCNC(=O)c1ccc(NN)nc1)C(=O)N[C@H]1CC(=O)NCCCC[C@@H](C(N)=O)NC(=O)[C@H](Cc2c[nH]c3ccccc23)NC(=O)[C@H](CCCNC(=N)N)NC(=O)[C@@H](Cc2ccccc2)NC(=O)[C@H](Cc2c[nH]cn2)NC1=O [technetium-99m labelled] — tissue uptake (C57 mouse, female, B16/F1 melanoma, intestines; intravenous, 0.037 MBq, 2 h): 0.99 ± 0.55 %ID
N=C(N)NCCC[C@@H]1NC(=O)[C@H](CCCCNC(=O)CCOCCOCCOCCOCCNC(=O)CN2CCN(CC(=O)O)CCN(CC(=O)O)CCN(CC(=O)O)CC2)NC(=O)[C@@H](Cc2ccccc2)NC(=O)[C@H](CC(=O)O)NC(=O)CNC1=O [indium-111 labelled] — tissue uptake (female athymic nude mice, kidney; intravenous, 3 µCi, 4 h, U-87 MG glioma xenograft): 2.8 ± 0.29 %ID/g
C[C@@H](O)[C@H](NC(=O)[C@@H]1CSSC[C@H](NC(=O)[C@@H](Cc2ccccc2)NC(=O)CN2CCCN3CCN(CCCN(CP(=O)(O)O)CC3)CC2)C(=O)N[C@@H](Cc2ccc(O)cc2)C(=O)N[C@H](Cc2c[nH]c3ccccc23)C(=O)N[C@@H](CCCCN)C(=O)N[C@@H]([C@@H](C)O)C(=O)N1)C(=O)O [copper-64 labelled] — tissue uptake (Lewis rat, male, tumour-bearing, adrenals; injection, 4 h, together with: Y3-TATE 200 µg co-injected): 0.2 ± 0.02 %ID/g
N=C(N)NCCC[C@@H]1NC(=O)[C@H](CCCCNC(=O)CC[C@H](NC(=O)CCOCCOCCOCCOCCNC(=O)CN2CCN(CC(=O)O)CCN(CC(=O)O)CCN(CC(=O)O)CC2)C(=O)NCCCC[C@@H]2NC(=O)[C@@H](Cc3ccccc3)NC(=O)[C@H](CC(=O)O)NC(=O)CNC(=O)[C@H](CCCNC(=N)N)NC2=O)NC(=O)[C@@H](Cc2ccccc2)NC(=O)[C@H](CC(=O)O)NC(=O)CNC1=O [indium-111 labelled] — tissue uptake (female athymic nude mice, blood; intravenous, 3 µCi, 0.5 h, U-87 MG glioma xenograft): 1.13 ± 0.13 %ID/g
CSCC[C@H](NC(=O)[C@H](CC(C)C)NC(=O)[C@H](Cc1c[nH]cn1)NC(=O)CNC(=O)[C@@H](NC(=O)[C@H](C)NC(=O)[C@H](Cc1c[nH]c2ccccc12)NC(=O)[C@H](CCC(N)=O)NC(=O)CCCCCNC(=O)CNC(=O)CNC(=O)CNC(=O)CSC(C)=O)C(C)C)C(N)=O [technetium-99m labelled] — tissue uptake (Swiss mouse, muscle; intravenous, 18.5 MBq, 30 min): 0.11 ± 0.03 %ID/g
N=C(N)NCCC[C@@H]1NC(=O)[C@H](CCCCNC(=O)CCOCCOCCOCCOCCNC(=O)CC[C@H](NC(=O)CCOCCOCCOCCOCCNC(=O)CC[C@H](NC(=O)CN2CCN(CC(=O)O)CCN(CC(=O)O)CCN(CC(=O)O)CC2)C(=O)NCCOCCOCCOCCOCCC(=O)N[C@@H](CCC(=O)NCCOCCOCCOCCOCCC(=O)NCCCC[C@@H]2NC(=O)[C@@H](Cc3ccccc3)NC(=O)[C@H](CC(=O)O)NC(=O)CNC(=O)[C@H](CCCNC(=N)N)NC2=O)C(=O)NCCOCCOCCOCCOCCC(=O)NCCCC[C@@H]2NC(=O)[C@@H](Cc3ccccc3)NC(=O)[C@H](CC(=O)O)NC(=O)CNC(=O)[C@H](CCCNC(=N)N)NC2=O)C(=O)NCCOCCOCCOCCOCCC(=O)NCCCC[C@@H]2NC(=O)[C@@H](Cc3ccccc3)NC(=O)[C@H](CC(=O)O)NC(=O)CNC(=O)[C@H](CCCNC(=N)N)NC2=O)NC(=O)[C@@H](Cc2ccccc2)NC(=O)[C@H](CC(=O)O)NC(=O)CNC1=O [indium-111 labelled] — tissue uptake (athymic nude mice, female, U-87 MG glioma xenograft, U-87 MG tumour; intravenous, 3 µCi, 72 h): 3.04 ± 0.39 %ID/g
N=C(N)NCCC[C@@H]1NC(=O)[C@H](CC(=O)NC23CNCCNCC(N)(CNCCNC2)CNCCNC3)NC(=O)[C@@H](Cc2ccccc2)NC(=O)[C@H](CC(=O)O)NC(=O)CNC1=O [copper-64 labelled] — tissue uptake (Nu/Nu mouse, male, tumour-bearing, heart; intravenous, 10 µCi, 1 h): 0.56 ± 0.09 %ID/g

Some of these lines once more:
CSCC[C@H](NC(=O)[C@H](CC(C)C)NC(=O)[C@H](Cc1c[nH]cn1)NC(=O)CNC(=O)[C@@H](NC(=O)[C@H](C)NC(=O)[C@H](Cc1c[nH]c2ccccc12)NC(=O)[C@H](CCC(N)=O)NC(=O)CNC(=O)[C@H](CO)NC(=O)CNC(=O)CCCCCCCNC(=O)CCC(=O)Nc1ccc(CNC23CNCCNCC(N)(CNCCNC2)CNCCNC3)cc1)C(C)C)C(N)=O [copper-64 labelled] — tissue uptake (female SCID mice, PC-3 xenograft, pancreas; intravenous, 0.6 MBq, 1 h): 52 ± 4.42 %ID/g
